Published values collected from several papers.
Every numbered part comes from another study and shows a few of its results, in no order.
Sequence of UniProt Q96J92 (whole entry, looked up): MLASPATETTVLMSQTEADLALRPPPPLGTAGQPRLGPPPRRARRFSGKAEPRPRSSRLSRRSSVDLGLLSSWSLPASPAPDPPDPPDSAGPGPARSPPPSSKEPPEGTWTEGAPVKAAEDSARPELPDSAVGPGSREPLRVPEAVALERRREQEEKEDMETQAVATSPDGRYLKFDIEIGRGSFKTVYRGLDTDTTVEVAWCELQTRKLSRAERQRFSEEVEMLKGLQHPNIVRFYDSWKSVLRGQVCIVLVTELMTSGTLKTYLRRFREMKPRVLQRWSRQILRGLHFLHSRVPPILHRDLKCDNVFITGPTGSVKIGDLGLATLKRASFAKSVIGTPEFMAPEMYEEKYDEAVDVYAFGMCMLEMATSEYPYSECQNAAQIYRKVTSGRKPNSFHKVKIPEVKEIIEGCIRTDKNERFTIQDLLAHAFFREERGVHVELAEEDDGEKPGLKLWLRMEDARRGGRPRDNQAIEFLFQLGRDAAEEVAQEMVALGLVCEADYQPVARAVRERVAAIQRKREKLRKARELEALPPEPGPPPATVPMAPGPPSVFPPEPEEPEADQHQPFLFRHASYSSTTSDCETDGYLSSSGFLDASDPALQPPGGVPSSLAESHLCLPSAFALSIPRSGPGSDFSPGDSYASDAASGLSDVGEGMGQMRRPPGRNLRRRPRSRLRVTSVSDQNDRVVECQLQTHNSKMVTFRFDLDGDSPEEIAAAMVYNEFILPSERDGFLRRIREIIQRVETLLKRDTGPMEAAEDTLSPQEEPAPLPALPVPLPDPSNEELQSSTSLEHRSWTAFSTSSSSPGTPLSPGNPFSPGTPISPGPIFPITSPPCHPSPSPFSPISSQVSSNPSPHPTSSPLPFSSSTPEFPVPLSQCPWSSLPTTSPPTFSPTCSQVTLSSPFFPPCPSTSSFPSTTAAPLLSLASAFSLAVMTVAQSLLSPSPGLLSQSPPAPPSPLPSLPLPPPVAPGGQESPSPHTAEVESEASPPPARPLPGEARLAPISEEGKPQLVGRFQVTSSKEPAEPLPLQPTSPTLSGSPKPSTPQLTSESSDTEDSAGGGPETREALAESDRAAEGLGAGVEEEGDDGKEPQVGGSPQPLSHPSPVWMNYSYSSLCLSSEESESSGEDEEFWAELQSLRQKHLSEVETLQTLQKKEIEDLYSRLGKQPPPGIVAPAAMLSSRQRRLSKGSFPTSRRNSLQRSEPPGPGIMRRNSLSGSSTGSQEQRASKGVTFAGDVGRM
Sequence of UniProt Q16566 (whole entry, looked up): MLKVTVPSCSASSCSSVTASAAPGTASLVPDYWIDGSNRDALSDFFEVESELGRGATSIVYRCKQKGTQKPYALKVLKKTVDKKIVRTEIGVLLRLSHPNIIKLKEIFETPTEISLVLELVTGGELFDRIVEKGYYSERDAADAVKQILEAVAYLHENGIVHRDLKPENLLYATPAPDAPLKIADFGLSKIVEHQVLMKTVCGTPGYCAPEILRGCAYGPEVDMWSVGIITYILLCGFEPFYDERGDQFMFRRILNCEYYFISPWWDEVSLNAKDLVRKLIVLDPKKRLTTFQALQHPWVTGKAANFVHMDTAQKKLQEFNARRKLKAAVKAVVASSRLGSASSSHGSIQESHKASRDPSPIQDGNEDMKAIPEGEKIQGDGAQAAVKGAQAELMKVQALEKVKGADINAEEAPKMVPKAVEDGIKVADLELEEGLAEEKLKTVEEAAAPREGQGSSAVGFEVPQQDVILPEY
Sequence of UniProt Q8N568 (whole entry, looked up): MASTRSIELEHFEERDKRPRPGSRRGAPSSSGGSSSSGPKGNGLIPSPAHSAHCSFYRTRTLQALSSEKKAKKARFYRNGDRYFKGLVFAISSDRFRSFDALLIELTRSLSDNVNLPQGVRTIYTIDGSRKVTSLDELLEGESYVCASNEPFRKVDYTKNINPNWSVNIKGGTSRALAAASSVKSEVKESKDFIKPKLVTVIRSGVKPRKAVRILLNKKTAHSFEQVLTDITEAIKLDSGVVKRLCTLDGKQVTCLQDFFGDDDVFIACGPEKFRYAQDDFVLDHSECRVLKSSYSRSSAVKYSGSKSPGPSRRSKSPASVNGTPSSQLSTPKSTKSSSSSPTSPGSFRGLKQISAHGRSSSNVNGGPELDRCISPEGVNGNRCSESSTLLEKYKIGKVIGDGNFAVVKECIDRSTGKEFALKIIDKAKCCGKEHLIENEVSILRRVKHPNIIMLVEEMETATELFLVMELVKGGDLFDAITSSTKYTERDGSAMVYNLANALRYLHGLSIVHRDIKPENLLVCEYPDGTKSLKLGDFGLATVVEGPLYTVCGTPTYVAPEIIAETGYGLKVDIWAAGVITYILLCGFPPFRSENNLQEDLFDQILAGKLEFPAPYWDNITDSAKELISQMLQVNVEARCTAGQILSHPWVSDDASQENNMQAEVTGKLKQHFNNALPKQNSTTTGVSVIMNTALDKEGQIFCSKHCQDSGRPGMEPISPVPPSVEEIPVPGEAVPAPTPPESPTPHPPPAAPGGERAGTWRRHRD
Sequence of UniProt P29376 (whole entry, looked up): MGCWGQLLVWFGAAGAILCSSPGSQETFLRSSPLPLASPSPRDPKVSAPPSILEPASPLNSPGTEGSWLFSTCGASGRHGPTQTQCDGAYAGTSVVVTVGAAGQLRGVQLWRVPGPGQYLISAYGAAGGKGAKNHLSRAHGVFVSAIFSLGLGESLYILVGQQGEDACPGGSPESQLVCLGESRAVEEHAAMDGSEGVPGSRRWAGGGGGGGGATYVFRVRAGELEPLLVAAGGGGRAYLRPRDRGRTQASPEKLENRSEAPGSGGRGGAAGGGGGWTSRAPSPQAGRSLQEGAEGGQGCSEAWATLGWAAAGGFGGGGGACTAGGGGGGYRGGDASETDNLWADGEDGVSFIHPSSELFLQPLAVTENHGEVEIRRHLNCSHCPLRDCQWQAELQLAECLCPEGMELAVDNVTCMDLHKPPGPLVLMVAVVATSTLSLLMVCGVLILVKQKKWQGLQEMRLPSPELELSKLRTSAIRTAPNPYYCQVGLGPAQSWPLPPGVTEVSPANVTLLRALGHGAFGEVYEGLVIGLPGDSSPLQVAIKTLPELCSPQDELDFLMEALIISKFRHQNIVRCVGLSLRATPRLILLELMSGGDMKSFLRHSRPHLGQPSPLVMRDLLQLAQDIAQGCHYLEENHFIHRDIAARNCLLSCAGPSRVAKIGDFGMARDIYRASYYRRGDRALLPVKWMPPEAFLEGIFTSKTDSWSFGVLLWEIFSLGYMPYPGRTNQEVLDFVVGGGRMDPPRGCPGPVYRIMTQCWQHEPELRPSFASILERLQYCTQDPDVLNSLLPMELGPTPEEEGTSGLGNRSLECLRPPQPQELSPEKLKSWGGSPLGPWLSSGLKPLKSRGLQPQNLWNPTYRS
Sequence of UniProt P51812 (whole entry, looked up): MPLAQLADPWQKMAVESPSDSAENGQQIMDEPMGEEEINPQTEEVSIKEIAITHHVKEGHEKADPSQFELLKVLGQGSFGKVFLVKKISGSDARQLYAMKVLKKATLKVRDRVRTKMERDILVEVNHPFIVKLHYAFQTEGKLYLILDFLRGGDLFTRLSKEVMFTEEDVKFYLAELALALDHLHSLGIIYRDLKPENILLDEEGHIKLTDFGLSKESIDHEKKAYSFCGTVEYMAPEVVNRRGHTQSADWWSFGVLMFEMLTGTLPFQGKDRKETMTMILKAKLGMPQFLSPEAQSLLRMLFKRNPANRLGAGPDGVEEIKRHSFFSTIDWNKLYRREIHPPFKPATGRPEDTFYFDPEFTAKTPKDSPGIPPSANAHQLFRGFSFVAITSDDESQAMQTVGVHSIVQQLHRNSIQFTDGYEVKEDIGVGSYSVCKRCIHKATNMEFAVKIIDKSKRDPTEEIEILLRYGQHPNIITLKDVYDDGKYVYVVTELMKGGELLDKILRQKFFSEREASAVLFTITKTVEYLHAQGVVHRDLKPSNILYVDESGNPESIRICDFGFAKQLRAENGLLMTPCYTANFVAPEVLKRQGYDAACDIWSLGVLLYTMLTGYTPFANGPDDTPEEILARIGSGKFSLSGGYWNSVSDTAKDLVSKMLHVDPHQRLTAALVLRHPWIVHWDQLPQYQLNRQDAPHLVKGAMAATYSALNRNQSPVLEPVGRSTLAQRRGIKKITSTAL

Series 1
Target: Epidermal growth factor receptor (EGFR, Homo sapiens, UniProt P00533)
Observed: enzyme activity
Action: inhibitor
Concentration: 0.5 µM
Reference: control
Structure (SMILES) | remaining activity [%]
Cc1cc(Nc2cc(N3CCN(C)CC3)nc(Sc3ccc(NC(=O)C4CC4)cc3)n2)[nH]n1 | 93.7
Cc1ccc(S(=O)(=O)/C=C/C#N)cc1 | 97.5
CC(C)n1cnc2c(Nc3cccc(Cl)c3)nc(NCCO)nc21 | 91.5
O=c1c(-c2ccc(F)cc2)c(-c2ccncc2)[nH]n1-c1ccc(Cl)cc1 | 57.7
c1cc(-c2cnn3cc(-c4ccc(OCCN5CCCCC5)cc4)cnc23)ccn1 | 100
CC(C)N(CCC(=O)c1ccc2ccccc2c1)Cc1ccccc1 | 99.4
CCCNC(=O)Nc1ccc(Oc2ncnc3cc(OC)c(OC)cc23)cc1Cl | 88.1
N#C/C(=C(/N)SC1C=CC=CC1)c1cccc(C(O)c2ccncc2)c1 (centres unmarked) | 94.9
O=C1c2ccccc2-c2nc3nnnn3nc21 | 37
CCCCc1c(-c2ccc(OC)cc2)[nH]c2nccnc12 | 103
CN(C)S(=O)(=O)c1ccc2c(c1)/C(=C/c1cc3c([nH]1)CCCC3)C(=O)N2 | 93.4
COc1ccc2c(c1)c(C1=C(c3c[nH]c4ccccc34)C(=O)NC1=O)cn2CCCN(C)C | 92.6
O=C1Nc2ccc(Br)cc2/C1=C/c1cc2c([nH]1)CCCC2 | 87.4
NC(=O)c1cccc(-c2cc(Nc3ccc(OC(F)(F)F)cc3)ncn2)c1 | 96.6

Series 2
Target: RNA binding protein fox-1 homolog 2, RRM domain, GST-SBP tag (RBFOX2, Homo sapiens, UniProt O43251-10, residues 100-194)
Method: RNA Bind-n-Seq
Molecule type: RNA
Matrix: in vitro
Concentration: 365 nM
Notes: natural RNA segment, single round, ends assumed
Reference: no-protein control
Reading: higher = stronger binding
All sequences stand within: GGGAGUUCUACAGUCCGACGAUC … UGGAAUUCUCGGGUGCCAA
Residues (chain): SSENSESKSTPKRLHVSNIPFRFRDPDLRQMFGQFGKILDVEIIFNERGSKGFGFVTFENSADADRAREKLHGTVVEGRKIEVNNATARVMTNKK
Strand | RBNS enrichment (R)
GGUUCCAGUAAUAAGAGUUUUCGAAUAUUUUAAGUAUAACAUCAUGUGAAAAAGACAGGAGAGGUGGAAACUCAGGAGAGAAGGGAAAUACAGCUGGCUGUCUACUACUC | 0.47
UCAAGAGUCAAACUGUGUGAGAAAAGCCAAAGAUUUUUUUUUGAGUCCUUUUGAAGACAGCUAGCUAAAUUUGCCUGCCAAAAGAUGUCAAUUAUUGAAUUGAUACCUGU | 0.639
GUUUCUCACAUUGCUGUAUUUUAGAAAAUAGGGGUUAAGACUGAUAACAACCUUUUACAUUGUGACUGUGUUUGCAUUGUCUAAUGACAGAUAAAUCCUUAACAUUUCUC | 0.661
CUCUCCAUUUUGAUUAAAUAGUUCAUUGCAUUCUGAAGUUUGGGGAUGUUUUUUCUUUCCUUUUCUUUUCAAAUCCUUUAAUGAUAGGAAGACAAGUGAAACUGGGUGCA | 2.18
CGGUGGGUGGCCGUGGGCCACCUUCCCUGCAAUGGGUGCACACGCGGCUCCCAUCCAGCCCUCUCAGCGUGGGGCUGUGGCUGGUCCUCACUAUUCCCCAGUCUCCCGCU | 0.297
AUCUUCAGACCCAAUAGCUCUAAUUUUAACAUUUCUACCCAAUAAGAGGCUCUGUUUUCCACUGAAGCUUUGUUGGAGAAAGAGAAUAUGAAAAUUACACAUUUUAUAAU | 0.376
ACACCCUUCCCACCCUGCUGUGGGGCCCUGCCUUUGUGGGGAGCAGCCAGCCCUCUGCCCCUGCCCAGGGCUCCCCAACUAUAGGCCUGGGACCCCCGCCCAGCUUGGGG | 0.705
CCACUGUCCUUCCUGGUCUCGCACUGCCACUGCAUGGCCUCCUGUCACUGUGAAUCGUGGCCCAGUCUCAGUUUGUAGUUUCUCAUUAAAUUGGCCCUUUCACUCCCCCG | 1.11

Series 3
Target: Prothrombin, mature alpha-thrombin (F2, Homo sapiens, UniProt P00734)
Method: aptamer microarray, sandwich
Molecule type: DNA with 2'F-ANA
Matrix: in vitro
Concentration: 200 nM
Notes: whole 15-mer aptamer, many near background
Together with: Cy3 exosite-II aptamer, 400 nM
Reading: higher = stronger binding
Strand: GGTTGGTGTGGTTGG
Modification | mean fluorescence intensity [a.u.]
2'F-ANA at 1 2 3 5 6 7 8 12 13 | 110
2'F-ANA at 3 4 5 10 12 15 | 90.2
2'F-ANA at 2 3 4 5 6 7 9 12 13 15 | 84.8
2'F-ANA at 3 5 6 7 8 9 11 | 101
2'F-ANA at 2 3 8 9 10 11 12 13 14 15 | 285
2'F-ANA at 2 4 7 8 11 12 | 575
2'F-ANA at 1 3 4 6 10 11 14 | 58.6
2'F-ANA at 1 3 5 7 11 12 13 14 15 | 50.7

Series 4
SMILES: CN(C)c1ncnc(-c2ccc3nc(Nc4cc(CN5CCN(C(=O)CC(F)(F)F)CC5)ccn4)[nH]c3c2)c1Cl
Observed: cell-free assay
Method: competition with immobilised ligand
Concentration: 1 µM
target | remaining binding [%]
DCLK2 (Homo sapiens, UniProt Q8N568) | 100
Ribosomal protein S6 kinase alpha-3, C-terminal kinase domain (RPS6KA3, Homo sapiens, UniProt P51812) | 87
WNK4 (Homo sapiens, UniProt Q96J92) | 53
CAMK4 (Homo sapiens, UniProt Q16566) | 89
LTK (Homo sapiens, UniProt P29376) | 88
